Published values gathered from unrelated publications.
Protocols differ between the studies behind these lines. ± gives the spread as reported.
CYP3A4: Cytochrome P450 3A4 (CYP3A4, Homo sapiens, UniProt P08684)
Sequence of UniProt P08684 (whole entry, looked up): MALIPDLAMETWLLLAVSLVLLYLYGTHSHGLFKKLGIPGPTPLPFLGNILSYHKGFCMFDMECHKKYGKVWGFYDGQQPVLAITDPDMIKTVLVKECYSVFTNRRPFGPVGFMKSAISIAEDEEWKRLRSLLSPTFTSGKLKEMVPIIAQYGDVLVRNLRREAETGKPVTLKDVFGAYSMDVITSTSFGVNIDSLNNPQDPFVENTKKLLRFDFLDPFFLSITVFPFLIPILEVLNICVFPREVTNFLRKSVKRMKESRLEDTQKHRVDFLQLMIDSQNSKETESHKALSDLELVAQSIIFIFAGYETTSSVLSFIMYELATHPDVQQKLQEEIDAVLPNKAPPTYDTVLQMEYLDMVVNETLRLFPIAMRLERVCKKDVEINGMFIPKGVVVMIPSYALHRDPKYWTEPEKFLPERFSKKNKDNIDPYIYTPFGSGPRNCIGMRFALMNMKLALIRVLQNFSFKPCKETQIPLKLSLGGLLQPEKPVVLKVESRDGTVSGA
Sequence of UniProt Q4GZT4 (whole entry, looked up): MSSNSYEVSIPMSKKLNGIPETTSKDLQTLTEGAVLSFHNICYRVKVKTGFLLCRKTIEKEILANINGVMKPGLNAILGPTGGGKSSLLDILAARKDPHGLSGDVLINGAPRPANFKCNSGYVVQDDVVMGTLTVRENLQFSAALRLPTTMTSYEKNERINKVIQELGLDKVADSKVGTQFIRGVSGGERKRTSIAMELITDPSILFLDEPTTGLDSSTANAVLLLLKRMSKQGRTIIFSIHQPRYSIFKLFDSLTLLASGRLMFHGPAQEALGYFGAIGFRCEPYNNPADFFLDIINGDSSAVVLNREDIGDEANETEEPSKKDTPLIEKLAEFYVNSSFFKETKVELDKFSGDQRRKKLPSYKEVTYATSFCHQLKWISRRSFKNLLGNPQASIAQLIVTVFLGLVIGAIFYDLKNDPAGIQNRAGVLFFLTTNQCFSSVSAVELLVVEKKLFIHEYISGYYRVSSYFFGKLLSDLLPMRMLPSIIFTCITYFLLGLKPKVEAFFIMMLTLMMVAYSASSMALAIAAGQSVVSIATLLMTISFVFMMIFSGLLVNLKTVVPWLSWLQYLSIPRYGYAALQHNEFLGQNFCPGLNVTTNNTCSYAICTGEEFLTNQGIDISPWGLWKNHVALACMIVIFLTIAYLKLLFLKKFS
Sequence of UniProt P22413 (whole entry, looked up): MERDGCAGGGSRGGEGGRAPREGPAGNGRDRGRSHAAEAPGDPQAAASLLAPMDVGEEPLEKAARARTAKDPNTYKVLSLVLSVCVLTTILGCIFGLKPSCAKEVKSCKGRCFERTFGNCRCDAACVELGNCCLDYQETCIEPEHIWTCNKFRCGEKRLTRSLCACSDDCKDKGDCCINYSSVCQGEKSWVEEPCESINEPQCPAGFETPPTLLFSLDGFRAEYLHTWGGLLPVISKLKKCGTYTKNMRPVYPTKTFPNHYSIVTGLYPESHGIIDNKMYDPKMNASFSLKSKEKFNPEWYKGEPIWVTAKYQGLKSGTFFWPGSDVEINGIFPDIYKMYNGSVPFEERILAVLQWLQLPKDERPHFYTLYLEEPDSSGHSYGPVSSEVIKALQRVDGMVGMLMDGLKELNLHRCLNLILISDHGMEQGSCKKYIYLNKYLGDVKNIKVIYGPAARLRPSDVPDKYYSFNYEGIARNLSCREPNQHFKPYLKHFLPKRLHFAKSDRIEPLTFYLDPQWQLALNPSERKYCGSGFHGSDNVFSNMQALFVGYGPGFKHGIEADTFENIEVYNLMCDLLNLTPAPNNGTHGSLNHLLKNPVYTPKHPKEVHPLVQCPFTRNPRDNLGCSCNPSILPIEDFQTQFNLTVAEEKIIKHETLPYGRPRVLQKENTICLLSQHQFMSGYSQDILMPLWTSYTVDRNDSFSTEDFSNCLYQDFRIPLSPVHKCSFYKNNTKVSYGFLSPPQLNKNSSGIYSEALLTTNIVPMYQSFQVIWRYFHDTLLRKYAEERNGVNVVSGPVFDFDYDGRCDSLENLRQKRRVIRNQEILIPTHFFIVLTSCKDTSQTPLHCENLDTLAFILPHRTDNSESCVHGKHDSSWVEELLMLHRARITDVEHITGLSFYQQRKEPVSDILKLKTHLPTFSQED
Sequence of UniProt Q96FL8 (whole entry, looked up): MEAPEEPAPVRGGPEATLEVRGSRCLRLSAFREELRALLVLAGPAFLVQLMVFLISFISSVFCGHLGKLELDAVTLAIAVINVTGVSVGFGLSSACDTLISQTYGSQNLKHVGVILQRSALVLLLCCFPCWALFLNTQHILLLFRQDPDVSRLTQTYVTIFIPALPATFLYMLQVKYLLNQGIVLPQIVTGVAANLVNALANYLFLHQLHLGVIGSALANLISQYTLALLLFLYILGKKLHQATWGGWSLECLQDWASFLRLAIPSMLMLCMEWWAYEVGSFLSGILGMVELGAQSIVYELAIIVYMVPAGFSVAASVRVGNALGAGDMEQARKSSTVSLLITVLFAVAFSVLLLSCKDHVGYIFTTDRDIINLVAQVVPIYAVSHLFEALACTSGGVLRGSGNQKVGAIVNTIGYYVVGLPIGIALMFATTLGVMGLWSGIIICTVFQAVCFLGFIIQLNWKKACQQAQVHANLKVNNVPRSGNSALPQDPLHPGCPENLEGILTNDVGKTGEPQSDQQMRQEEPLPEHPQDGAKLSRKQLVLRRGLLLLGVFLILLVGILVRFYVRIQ

SMILES | target | assay | system | conditions | scale | quantity | result
Cc1cc(Nc2ncnc3ccc(NC4=NC(C)(CO)CO4)cc23)ccc1Oc1ccn2ncnc2c1 (stereo not drawn) | CYP3A4 | – | human, plasma | oral, 300 mg tucatinib single dose, day 1, tucatinib alone | – | AUC(0-inf) (geometric mean) | 512 ng·h/mL
CCc1cc(/C(C)=N/OCc2ccc(C3CCCCC3)c(C(F)(F)F)c2)ccc1CN1CC(C(=O)O)C1 | Multidrug and toxin extrusion protein 1 (SLC47A1, Homo sapiens, UniProt Q96FL8) | inhibitor | HEK293 transfected with SLC47A1 | up to 40 µM, 2 min, together with: MPP+ 0.025 µM | – | maximal inhibition | 3.01%
COc1ccc(F)cc1C(=O)NCc1ccc(-c2nn([C@@H](C)C(F)(F)F)c(N)c2C(N)=O)cc1 | CYP3A4 | – | human, both sexes, plasma | oral, 200 mg single dose, together with: itraconazole | reference: without itraconazole | Cmax increase | 4%
CC[C@H]1[C@@H](O)[C@@H]2[C@H](CC[C@]3(C)[C@@H]([C@H](C)CCNC(=O)NS(=O)(=O)c4ccc(C(C)(C)C)cc4)CC[C@@H]23)[C@@]2(C)CC[C@@H](O)C[C@@H]12 | CYP3A4 | – | human, plasma | dose not given, geometric mean, alone | – | AUC(0-t) | 404 ng·h/mL
C=CC(=O)N1CCN(c2nc(OC[C@@H]3CCCN3C)nc3c(F)c(-c4nc(N)cc(C)c4C(F)(F)F)c(Cl)cc23)[C@@H](C)C1 | glutathione | reaction with glutathione, HPLC | – | pH 7.4, 37 °C, together with: 5 mM glutathione | – | half-life | 51.4 min
C=CC(=O)N1C[C@H](Nc2ncnc3[nH]ccc23)CC[C@@H]1C | CYP3A | substrate | human | oral, 30 mg single dose, cpd alone | – | terminal half-life | 66 ± 6 min
COc1cc(O)c(CC=C(C)C)c(O)c1C(=O)/C=C/c1ccc(O)cc1 | CYP2C9 and CYP2C8 | – | human | – | – | free serum concentration over IC50 | > 100 fold
Nc1nc2c(ncn2[C@@H]2O[C@@H]3COP(=O)(O)O[C@H]4[C@@H](O)[C@H](n5cnc6c(N)ncnc65)O[C@@H]4COP(=O)(O)O[C@H]2[C@@H]3O)c(=O)[nH]1 | Ectonucleotide pyrophosphatase/phosphodiesterase family member 1 (ENPP1, Homo sapiens, UniProt P22413) | substrate | – | 30 min | – | remaining compound | 20%
CN1C[C@@H]2C[C@H]1CN2c1cc2c(cc1F)c(=O)c(C(=O)O)cn2C1CC1 | Broad substrate specificity ATP-binding cassette transporter ABCG2 (ABCG2, Bos taurus, UniProt Q4GZT4) | basolateral-to-apical transport, transepithelial transport | MDCK-II transduced with ABCG2, HBSS with HEPES | 10 µM, 4 h | – | percent transported | 37.4 ± 3.32%
